Experimental data of several laboratories.
Every numbered part comes from another study and shows a few of its results, in no order. Positions count from the first letter of the parent shown.

Set 1
Target: Hepatocyte nuclear factor 3-alpha (Foxa1, Mus musculus, UniProt P35582, residues 1-468, full length assumed)
UniProt P35582, sequence (whole entry, looked up): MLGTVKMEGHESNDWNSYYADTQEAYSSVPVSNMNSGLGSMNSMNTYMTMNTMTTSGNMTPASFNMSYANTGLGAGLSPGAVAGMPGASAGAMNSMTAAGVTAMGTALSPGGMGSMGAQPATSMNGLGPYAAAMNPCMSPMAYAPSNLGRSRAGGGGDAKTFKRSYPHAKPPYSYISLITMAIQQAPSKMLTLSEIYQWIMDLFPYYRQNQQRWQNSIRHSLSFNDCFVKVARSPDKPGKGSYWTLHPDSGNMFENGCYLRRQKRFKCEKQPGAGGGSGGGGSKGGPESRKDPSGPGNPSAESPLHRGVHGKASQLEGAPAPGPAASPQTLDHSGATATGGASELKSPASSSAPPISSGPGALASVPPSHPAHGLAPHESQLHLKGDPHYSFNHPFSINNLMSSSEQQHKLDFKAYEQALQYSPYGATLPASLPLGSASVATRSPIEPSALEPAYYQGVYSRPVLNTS
Method: EMSA with sequencing
Molecule type: double-stranded DNA, one strand shown
Matrix: in vitro
Tested at: 10 and 20 nM
Notes: whole designed probe, mean of two concentrations, ends assumed
Relative to: negative control set to 0
Reading: higher = stronger binding
Measurement: normalised bound fraction
Oligonucleotide = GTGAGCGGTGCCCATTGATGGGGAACTAAAGAATTTCTCAGTATAATTACCTCCAGCCAGGTTGCTTTTTTTAGCTCAAAAGAAAGATAAAAGGCGGAGTCCTGTAAATAAAGGGAATGTAAACATGGAGACTGAACCAAAGGCAAGTTACGGGGAGATAAGAATACCTGAAGAGAATTCGATTCAGCTTGATGGTTTTACAGAAGCATATGAAAGTGGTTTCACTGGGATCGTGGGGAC; value = 0.295 ratio
Oligonucleotide = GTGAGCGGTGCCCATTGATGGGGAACATCTTCCCCCTCTTCCTTGCCCCACCAGCTCACCTACGGGGGTTATTTGCAGATAGGAAAATAAATAAAGCCGGCATTCGTTAACCCTCTTCACGCGCATACTGCTGTTTGCTCTGGATGAATCATGGTCCTTTGGCGAGGCGTGGCTCCGGGAGAGCAAAGCACCGTGTCAGGGCCATGATCCGGGCTCGCCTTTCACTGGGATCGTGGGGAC; value = 0.339 ratio
Oligonucleotide = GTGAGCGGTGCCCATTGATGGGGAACGGTGAATGGATTAGCGCTTAAGTGATGAATCAACTCCAACATCACCCGCTACCCTCTGCCCCATCATACCCTCATAAATCACTGTGTCATTGTTATGTACATAGTCCAACAGGATATCCAGTAATTTTTCTGTGTACACTCAGACTCTGAAATTTGATTTGTATATTGGAATAGTTTGTTCCCATCTGATTTCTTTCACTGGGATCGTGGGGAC; value = 0.235 ratio
Oligonucleotide = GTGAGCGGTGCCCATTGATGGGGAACACTGGGATGAGAGGCCAGGTAGAAACTTCAGGAGCATTCCACTTTGAAGTGTGAGGCTCTACCAGACACAAAATAAATATAACTGGGGGCCAGAATAATCTTCCAGGGCCAGCAAGTGAACCTGGCTTACGTGGCATGCATTAATATTTGGAGAAATTTCCCCAGCGAGGTTGCAGGAAGCTGAGTCACCTACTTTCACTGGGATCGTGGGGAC; value = 0.234 ratio
Oligonucleotide = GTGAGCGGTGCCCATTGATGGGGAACATCTTCCCCCTCTTCCTTGCCCCACCAGCTCACCTTCCCGGGTTATTTGCAGATAGGAAAATAAATAAAGCCGGCATTCGTTAACCCTCTTCTGGCGCAAACTGCTGTTTGCTCTGGATGAATCATGGTCCTTTGGCGACGCCAGGCTCCGGGAGAGCAAAGCACCGTGTCAGGGGGGGGTCCCCCGCTGATATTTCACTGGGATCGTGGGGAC; value = 0.328 ratio

Set 2
Target: Histone acetyltransferase KAT6A, winged helix 1, GST fusion (KAT6A, Homo sapiens, UniProt Q92794, residues 1-85)
Method: protein binding microarray
Molecule type: double-stranded DNA, one strand shown
Matrix: in vitro
Tested at: not given
Notes: 8-mer, flanks averaged, mean of 2 arrays, mostly near background
Relative to: not given
Reading: higher = stronger binding
Measurement: E-score
Residues (chain): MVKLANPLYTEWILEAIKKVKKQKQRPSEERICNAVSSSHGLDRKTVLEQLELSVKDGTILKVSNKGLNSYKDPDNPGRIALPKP
Oligonucleotide = CGTCAAAG; value = -0.15
Oligonucleotide = AACAGGAA; value = -0.111
Oligonucleotide = AAGCAACT; value = -0.213
Oligonucleotide = CCTCGGCA; value = 0.189
Oligonucleotide = CATTTTTA; value = -0.0385
Oligonucleotide = GTTGGGCA; value = -0.0768
Oligonucleotide = AAATTGTA; value = -0.137
Oligonucleotide = GTTTGGAA; value = -0.133

Set 3
Target: ABI1, truncated, D143A, DHFR fusion (Arabidopsis thaliana)
Method: DHFR PCA, deep sequencing
Matrix: yeast
Notes: methotrexate growth selection, single substitutions
Together with: (+)-ABA 0.39 µM
Relative to: wild-type fitted maximum
Reading: higher = stronger binding
Measurement: relative binding score
Starting sequence: PYL1, truncated, DHFR fusion (Arabidopsis thaliana); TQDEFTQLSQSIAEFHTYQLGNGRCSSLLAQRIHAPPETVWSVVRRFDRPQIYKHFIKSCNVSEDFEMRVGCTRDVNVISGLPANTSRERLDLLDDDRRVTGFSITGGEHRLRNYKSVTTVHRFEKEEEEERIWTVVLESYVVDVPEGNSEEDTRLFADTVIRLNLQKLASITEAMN
Substitution = D95L; value = -13.4%
Substitution = V118T; value = 43.2%
Substitution = Q167W; value = -0.294%
Substitution = V70A; value = 15.5%
Substitution = W41M; value = -9.52%
Substitution = D48S; value = -5.54%
Substitution = N149W; value = 7.85%
Substitution = N85S; value = 72.1%

Further values, each from its own experiment
SMILES = COc1ccc2c(CSc3nc4ccccc4o3)cc(=O)oc2c1; test system = mouse, microsomes or S9; conditions = 2 µM, 0.5 h; measurement = remaining compound; value = 0%

For quick reference, copied from above (set 3):
Substitution = D48S; value = -5.54%
Substitution = V70A; value = 15.5%
Substitution = N149W; value = 7.85%
